Measured values pooled from the literature.
Each numbered part is a random draw from the data of one study; scales do not carry over between parts. Positions count from the first letter of the parent shown.

Set 1 — method: protein-binding microarray; molecule type: double-stranded DNA, one strand shown; matrix: in vitro; concentration: 0.8 µM; notes: whole 60-bp probe, no competitor; direction: higher = stronger binding; all sequences stand within: … GTCTTGATTCGCTTGACGCTGCTG
Target: Centromere-binding protein 1, full length, N-terminal tag (CBF1, Saccharomyces cerevisiae, UniProt P17106, residues 1-351)
UniProt P17106, sequence (whole entry, looked up): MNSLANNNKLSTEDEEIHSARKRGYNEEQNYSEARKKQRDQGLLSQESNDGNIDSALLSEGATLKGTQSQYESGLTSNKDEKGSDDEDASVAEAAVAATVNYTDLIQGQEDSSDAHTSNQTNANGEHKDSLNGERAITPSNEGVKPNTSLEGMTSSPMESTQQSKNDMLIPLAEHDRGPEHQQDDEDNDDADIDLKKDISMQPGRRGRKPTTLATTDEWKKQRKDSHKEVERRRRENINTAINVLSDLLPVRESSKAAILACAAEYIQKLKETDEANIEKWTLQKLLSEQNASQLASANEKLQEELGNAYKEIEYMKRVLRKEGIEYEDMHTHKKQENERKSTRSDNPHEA
Strand	fluorescence intensity
CTAATTAAAATAAGTGACGTGAGAGATATAATTTTC	524 a.u.
GAAACTACGATGTTGTACGTGATCGAGAAAATTTAG	814 a.u.
GAAGTTAGACAAAATCACGCTTTTTCATTGGGATAG	705 a.u.
GAAATCTTATAAGGGTTCGTGATGCTCCTGAATTAG	515 a.u.
CTAGAAGGAGAAATAACCGTGATATTATTATGTTTC	542 a.u.
GAATGTCGTGAATATGGCACCACGTTGGTTACTTAG	637 a.u.
GAAGCCACAGGACATGGCGTGAAACGTGTAGGCTAG	512 a.u.
CTATTAAACACTAACCACGTGCAACCAACAGAATTC	5590 a.u.

Set 2 — target: CRIPT, C-terminal peptide; method: DHFR complementation, deep sequencing; matrix: yeast; relative to: wild type; direction: higher = weaker binding
Notes: single substitutions, model-inferred values
Parent: ERBIN, PDZ domain 1 (human); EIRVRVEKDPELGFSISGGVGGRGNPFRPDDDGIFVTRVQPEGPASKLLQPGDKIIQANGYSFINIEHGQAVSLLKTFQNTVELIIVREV; partner TKNYKQTSV
Change	binding free energy change [kcal/mol]
G52V	0.416
K76V	0.185
K47R	0.0408
L74Q	0.0237
N25Y	0.755
G24I	1.42
K54W	0.367
R23Q	-0.341

Other studies, line by line
Substance	tested on	assay	system	conditions	measurement	result
AGPS (Homo sapiens, UniProt O00116)	GNPAT (Homo sapiens, UniProt O15228)	cross-linking MS	cell fractions	added: DMTMM	cross-linked residues	E79 to K90
Nc1ccn([C@@H]2CS[C@H](CO)O2)c(=O)n1	A-375	–	–	100 µM, 36 h	viability	108%
PSMC2 (Homo sapiens, UniProt P35998)	PSMC6 (Homo sapiens, UniProt P62333)	cross-linking MS	–	hits only	interaction screen	cross-linked

Excerpt of the above (other studies, line by line):
Substance	tested on	assay	system	conditions	measurement	result
PSMC2 (Homo sapiens, UniProt P35998)	PSMC6 (Homo sapiens, UniProt P62333)	cross-linking MS	–	hits only	interaction screen	cross-linked
Nc1ccn([C@@H]2CS[C@H](CO)O2)c(=O)n1	A-375	–	–	100 µM, 36 h	viability	108%
AGPS (Homo sapiens, UniProt O00116)	GNPAT (Homo sapiens, UniProt O15228)	cross-linking MS	cell fractions	added: DMTMM	cross-linked residues	E79 to K90
